Results pooled from the literature.
Route: oral

Structure (SMILES)	assay	test system	conditions	measurement	value
CCn1c(=O)c(-c2cc(NC(=O)Nc3ccccc3)c(F)cc2Br)cc2cnc(NC)cc21	item: nervous system disorders	healthy human, matched to mild hepatic impairment	50 mg single dose	participants with drug-related TEAE	12.5%
C[C@H]1O[C@@H](O[C@H]2[C@@H](O)C[C@H](O[C@H]3[C@@H](O)C[C@H](O[C@H]4CC[C@@]5(C)[C@H](CC[C@@H]6[C@@H]5C[C@@H](O)[C@]5(C)[C@@H](C7=CC(=O)OC7)CC[C@]65O)C4)O[C@@H]3C)O[C@@H]2C)C[C@H](O)[C@@H]1O	item: Somnolence	human	0.25 mg	participants with TEAE	3.4%
COC(=O)N[C@H](C(=O)N1CCC[C@H]1c1ncc(-c2cc(F)c3c(c2)O[C@@H](c2cnc(C4CC4)s2)n2c-3cc3cc(-c4cnc([C@@H]5CCCN5C(=O)[C@@H](NC(=O)OC)C(C)C)[nH]4)ccc32)[nH]1)C(C)C	–	healthy adult humans	180 mg, 6 days	participants with Constipation	12.5%
CN1C(=O)[C@@H](NC(=O)c2nnc(Cc3ccccc3)[nH]2)COc2cccnc21	phase I single ascending dose	human, male and female	800 mg, fasted	participants with any TEAE	50%
CC(C)c1nc(N(C)S(C)(=O)=O)nc(-c2ccc(F)cc2)c1/C=C/[C@@H](O)C[C@@H](O)CC(=O)O	–	human	10 mg, alone	participants with headache	0%
CC(C)c1nc(N(C)S(C)(=O)=O)nc(-c2ccc(F)cc2)c1/C=C/[C@@H](O)C[C@@H](O)CC(=O)O	item: Somnolence	human	10 mg	participants with TEAE	3.4%
CC(C)c1nc(CN(C)C(=O)N[C@@H](CCN2CCOCC2)C(=O)N[C@H](CC[C@H](Cc2ccccc2)NC(=O)OCc2cncs2)Cc2ccccc2)cs1	–	human	dose not given, catheter site induration, treatment-emergent	participants with adverse events	0%
C=CC(=O)NC1CCN(c2ncc3ncnc(Nc4ccc(Oc5ccc6c(c5)ncn6C)c(C)c4)c3n2)CC1	–	healthy male humans	240 mg	participants with cough TEAE	6.3%

Excerpt of the above:
Structure (SMILES)	assay	test system	conditions	measurement	value
COC(=O)N[C@H](C(=O)N1CCC[C@H]1c1ncc(-c2cc(F)c3c(c2)O[C@@H](c2cnc(C4CC4)s2)n2c-3cc3cc(-c4cnc([C@@H]5CCCN5C(=O)[C@@H](NC(=O)OC)C(C)C)[nH]4)ccc32)[nH]1)C(C)C	–	healthy adult humans	180 mg, 6 days	participants with Constipation	12.5%
